Measured values of several laboratories.
Parts stem from different laboratories: compare values within a part only. Positions count from the first letter of the parent shown.

Block 1
Target: Ras GTPase-activating protein-binding protein 1, C-terminal RGG region (G3BP1, Homo sapiens, UniProt Q13283)
Chain of UniProt Q13283 (whole entry, looked up): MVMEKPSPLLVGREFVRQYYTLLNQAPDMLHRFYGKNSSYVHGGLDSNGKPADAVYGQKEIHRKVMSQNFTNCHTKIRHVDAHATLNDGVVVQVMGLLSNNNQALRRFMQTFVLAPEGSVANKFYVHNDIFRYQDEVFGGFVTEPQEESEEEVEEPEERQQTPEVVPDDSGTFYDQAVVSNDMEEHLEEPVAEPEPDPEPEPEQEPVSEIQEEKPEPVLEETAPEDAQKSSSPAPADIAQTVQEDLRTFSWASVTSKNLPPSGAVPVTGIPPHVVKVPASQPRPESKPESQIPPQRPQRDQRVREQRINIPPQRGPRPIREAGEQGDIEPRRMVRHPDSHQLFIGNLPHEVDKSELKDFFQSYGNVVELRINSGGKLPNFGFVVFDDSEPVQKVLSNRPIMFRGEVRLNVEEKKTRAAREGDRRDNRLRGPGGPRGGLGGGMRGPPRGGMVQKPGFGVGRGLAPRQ
Method: RNA Bind-n-Seq
Molecule type: RNA
Sample: in vitro
Tested at: 1 µM
Setting: whole 134-nt RNA, ends assumed
Added: 150 mM KCl
Baseline: input library
Reading: higher = stronger binding
Endpoint: log2 enrichment
All sequences stand within: GGGAGUUCUACAGUCCGACGAUC … UGGAAUUCUCGGGUGUCAAGG
UAACUUUAGAGGAGGAUCUGAUGGAUAUGGCAGCGGACGUGGAUUUGGGGAUGGCUAUAAUGGGUAUGGAGGAGGACCUGGAGGUGGCAA: -1.05
CCUGUGCUACACAUCGUAUGUACCGAAUCGGGCCCCCCCGGGCCCCCCCGGGCCCCCCCGGAAAGUAUUAUGUUACGCCGUUCGGAUCUG: -1.52
AGUCCUGUGCUACACAUCGUAUGUACCGAAUCGGGUUUUUGGGAAAAAAAGGGUGGGAAAGUAUUAUGUUACGCCGUUCGGAUCUGCACU: 0.69
UAACAUUAGAGGAGGAUCUGAUGGAUAUGGCAGUGGACGUGGAUUUGGGGAUGGCUAUAAUGGGUAUGGAGGAGGACCUGGAGGUGGCAA: -0.632
UCCUCAAGUCCUGUGCUACACAUCGUAUGUACCGAAUCGGCGGGGCGGCGGGAAAGUAUUAUGUUACGCCGUUCGGAUCUGCACUUCCAG: -0.367
UGGAGCUGAAGAGCCAAGAGGCUCCGAGUCUGCAGCAGCAGCCAGACCAGUACCUGGAGCCCCAGUCCCACAAGGAGCUUGGAUGUGCGG: -1.04
ACCAUGCAGGUGGGCAUCUUUGGGAAGUGGGGCAAGGGGGGGAUAGGGAGGGGGGUAACACUUUGGGAACAGGUGGUCCCAUGUCGUUUC: 1.5
UCCUCAAGUCCUGUGCUACACAUCGUAUGUACCGAAUCGGGGCGGGCGGCGGAAAGUAUUAUGUUACGCCGUUCGGAUCUGCACUUCCAG: -0.984
GUCCUGUGCUACACAUCGUAUGUACCGAAUCGGGGCCCCCGGCCCCCGGGGCCCCCGGGAAAGUAUUAUGUUACGCCGUUCGGAUCUGCA: -2.25
UCCCGGGCGCUAGCCCACCUCCCACCCGCCUCUUGGCUCCUCUCCUCUAGGCCGUCGCUUUCGGGUUCUCUCAUCGCUUCGUCGUUCGCC: 0.215
UCCUGUGCUACACAUCGUAUGUACCGAAUCGGGGCCCCCCGGGGCCCCCCGGCCCCCCGGAAAGUAUUAUGUUACGCCGUUCGGAUCUGC: -0.773
UUACCGACACCGUAGAACAGAGCAAGAGGAGGAUGAAGAGCUAUUAACAGAAAGCUCCAAAGCAACCAAUGUUUGCACUCGAUUUGAAGA: -1.47
AGUCCUGUGCUACACAUCGUAUGUACCGAAUCGGUUUUGGGUUUUGGGGUUUUGGGGAAAGUAUUAUGUUACGCCGUUCGGAUCUGCACU: -0.864
AGUCCUGUGCUACACAUCGUAUGUACCGAAUCGGGAAAAAGGAAAAAGGAAAAAGGGGAAAGUAUUAUGUUACGCCGUUCGGAUCUGCAC: -1.67

Block 2
Target: Prothrombin, mature alpha-thrombin (F2, Homo sapiens, UniProt P00734)
Method: aptamer microarray, sandwich
Molecule type: DNA with 2'F-ANA
Sample: in vitro
Tested at: 200 nM
Setting: whole 15-mer aptamer, many near background
Added: Cy3 exosite-II aptamer, 400 nM
Reading: higher = stronger binding
Endpoint: mean fluorescence intensity
Sequence: GGTTGGTGTGGTTGG
2'F-ANA at 3 6 7 8 9 10 11 12 14 15: 326 a.u.
2'F-ANA at 1 2 3 4 5 6 7 8 10 11 13 14: 48.7 a.u.
2'F-ANA at 2 3 4 7 8 9 10: 315 a.u.
2'F-ANA at 3 7 9 11 12 13 14: 670 a.u.
2'F-ANA at 2 3 8 10 11 13 15: 319 a.u.
2'F-ANA at 1 2 3 4 8 9 11 12 13 14: 65.6 a.u.
2'F-ANA at 2 3 4 6 9 13 14 15: 199 a.u.
2'F-ANA at 1 3 5 7 11 12 14 15: 50.8 a.u.
2'F-ANA at 1 3 4 7 8 10 14: 51.4 a.u.
2'F-ANA at 3 4 6 9 12 14 15: 296 a.u.
2'F-ANA at 1 2 3 7 8 13 15: 237 a.u.
2'F-ANA at 1 5 6 7 8 10 12 13 15: 49.5 a.u.
2'F-ANA at 2 3 4 5 8 12: 239 a.u.
2'F-ANA at 1 8 10 11 14 15: 45.1 a.u.
2'F-ANA at 2 4 7 9 12 14 15: 130 a.u.
2'F-ANA at 2 4 5 6 9 10 15: 44.3 a.u.
2'F-ANA at 1 4 5 8 9 11 13: 48.3 a.u.
2'F-ANA at 2 4 6 7 12: 583 a.u.
2'F-ANA at 1 2 3 4 5 7 10 11 13: 46.5 a.u.
2'F-ANA at 1 2 3 4 5 7 8 9 12 13 14 15: 47.4 a.u.
2'F-ANA at 1 2 4 5 7 9 12: 105 a.u.
2'F-ANA at 2 3 4 5 8 11 12 15: 141 a.u.
2'F-ANA at 1 2 3 4 5 7 8 10 11 14: 43.6 a.u.
2'F-ANA at 3 4 6 7 8 9 12 13 15: 860 a.u.
2'F-ANA at 1 2 4 6 10 12 14: 47 a.u.

Block 3
Target: FOSL2, bZIP domain (human)
Method: DHFR protein complementation
Sample: yeast
Setting: single substitutions, most at no-binding floor
Baseline: wild-type JUN-FOS pair
Reading: higher = stronger binding
Endpoint: binding fitness
Parent: JUN, bZIP domain (human); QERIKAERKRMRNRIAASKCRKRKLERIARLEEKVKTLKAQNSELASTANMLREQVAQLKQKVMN; partner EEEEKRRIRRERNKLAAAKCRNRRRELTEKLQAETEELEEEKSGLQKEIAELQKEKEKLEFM
L52G: -1.42 natural log
S43V: -0.0271 natural log
A46S: 0.0279 natural log
A29G: -0.0305 natural log
L38V: -0.636 natural log
E54Y: -0.214 natural log
A40E: 0.103 natural log
I28Y: -0.054 natural log
K36C: 0.135 natural log
A57Q: 0.0105 natural log
N42A: -0.251 natural log
Q55Y: -0.114 natural log
A40Y: -0.258 natural log
N42P: -1.03 natural log
A40M: 0.0273 natural log
A29N: -0.0185 natural log
E33R: -0.0388 natural log
R30G: 0.137 natural log
M51K: 0.0817 natural log

Block 4
Target: Histone acetyltransferase KAT6A, winged helix 2, GST fusion (KAT6A, Homo sapiens, UniProt Q92794, residues 85-181)
Method: protein binding microarray
Molecule type: double-stranded DNA, one strand shown
Sample: in vitro
Tested at: not given
Setting: 8-mer, flanks averaged, mean of 2 arrays, mostly near background
Baseline: not given
Reading: higher = stronger binding
Endpoint: E-score
Residues (chain): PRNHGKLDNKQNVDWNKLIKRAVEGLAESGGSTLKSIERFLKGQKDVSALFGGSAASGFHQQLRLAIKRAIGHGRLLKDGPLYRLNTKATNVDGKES
ACCGCCCA: 0.1
CCGATATC: 0.126
CACATGCC: 0.082
AACAGTAG: 0.0428
CGTGACAA: -0.0788
CACTCGTC: -0.19
ATGGAAGC: 0.0777
AAAAGATT: 0.0312
GCCTCTGA: -0.0272
AGCCAACA: -0.023
AAGCCACT: -0.058
TATCCAGA: 0.0401
AATTCGCG: 0.107
AACTCCGG: 0.208
AAGAATAA: -0.0592
CGCTCACG: 0.145
ATGAGCAC: 0.116
GAGATCCA: -0.00388
CACGTACA: -0.276
AAGCTAAG: -0.163
AATGATTG: -0.0976
AAATATCT: -0.0217
CTGGAACA: 0.00148
CAGAAGGG: 0.0833
GACTTAAC: -0.146

Block 5
Target: Interferon regulatory factor 3, full length, phosphomimetic (IRF3, Homo sapiens, UniProt Q14653, residues 1-427, S386D/S396D/S398D/S402D/T404D/S405D)
Method: protein-binding microarray
Molecule type: double-stranded DNA, one strand shown
Sample: in vitro
Tested at: 2540 nM top
Setting: 60-bp whole probe
Added: salmon DNA 0.4 mg/ml
Baseline: random background probes
Reading: higher = stronger binding
Endpoint: fitted relative affinity
All sequences stand within: GCCTAGCAC … GTCTTGATTCGCTTGACGCTGCTG
Residues (chain): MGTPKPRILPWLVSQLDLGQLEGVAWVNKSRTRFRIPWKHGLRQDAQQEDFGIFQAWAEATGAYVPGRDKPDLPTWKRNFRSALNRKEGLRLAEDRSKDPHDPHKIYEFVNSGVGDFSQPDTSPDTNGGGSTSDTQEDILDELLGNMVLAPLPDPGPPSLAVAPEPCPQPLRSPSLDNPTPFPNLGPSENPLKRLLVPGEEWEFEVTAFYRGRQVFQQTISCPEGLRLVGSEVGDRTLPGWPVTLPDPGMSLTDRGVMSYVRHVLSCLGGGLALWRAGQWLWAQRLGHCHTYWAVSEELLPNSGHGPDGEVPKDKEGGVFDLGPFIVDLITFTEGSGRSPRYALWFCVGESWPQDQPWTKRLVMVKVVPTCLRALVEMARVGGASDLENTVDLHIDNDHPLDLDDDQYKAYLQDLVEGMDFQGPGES
CCTTTTATGGTTTTTTTTTAGTGCTAG: 2.98 z-score
TTAGGTCTCAGTATCGGTTAGTGCTAG: 2.26 z-score
TCCATTTTCTAAATTCCCTAGTGCTAG: 3.07 z-score
GACGAACTGAGACTGGAGGCGTGCTAG: -0.483 z-score
TTAGGACTGTGACTGGGTTAGTGCTAG: -0.784 z-score
TTAGGACTCCTTTTCCTTTAGTGCTAG: 3.08 z-score
CCGCCGCCTGGCTGGGGGATGTGCTAG: -1.07 z-score
TTAGGTATCGATTTCGGTTAGTGCTAG: 4.33 z-score
TCATGTCTGGATGTGCCACTGTGCTAG: -0.132 z-score
GACGGTTTCCGTTTCCTGACGTGCTAG: 8.83 z-score
TTGTGTTTTCATTTTATGACGTGCTAG: 3.45 z-score
TCAACTTTCAGTTCTCCACTGTGCTAG: 4.72 z-score
TCAACTTCGGCCTCTAGGACTGTGCTA: -0.235 z-score
TTAGATTTCAGTATCGATTTGTGCTAG: 3.5 z-score
TGGGCACACTTTGGGTCCTGGTGCTAG: -0.766 z-score
GACGGTCTCCTTTTCCTGAGGTGCTAG: 4.57 z-score
TTAGATTTCGGGTATCGTTTAGTGCTA: 1.75 z-score
TTAGGTTCCCTTTTGCTTTAGTGCTAG: 6.95 z-score
TTAGAGCTGAGACTGGATTAGTGCTAG: -0.807 z-score
TTCGGTTTCGGGTTTCGGTTAGTGCTA: 6.55 z-score
TTAGGTTTCAGTCTCGATTAGTGCTAG: 5.16 z-score
GACGGTATCGACTTGCGGGACGTGCTA: 0.731 z-score
GACGGTCTCCTTTTACTGACGTGCTAG: 4.3 z-score
TCATTATTTTTTTTATTACTGTGCTAG: 0.701 z-score
AATGACTCTATGAAGTAGTTGTGCTAG: -0.502 z-score

Block 6
Target: ABI1, truncated, D143A, DHFR fusion (Arabidopsis thaliana)
Method: DHFR PCA, deep sequencing
Sample: yeast
Setting: methotrexate growth selection, single substitutions
Added: (+)-ABA 0.11 µM
Baseline: wild-type fitted maximum
Reading: higher = stronger binding
Endpoint: relative binding score
Parent: PYL1, truncated, DHFR fusion (Arabidopsis thaliana); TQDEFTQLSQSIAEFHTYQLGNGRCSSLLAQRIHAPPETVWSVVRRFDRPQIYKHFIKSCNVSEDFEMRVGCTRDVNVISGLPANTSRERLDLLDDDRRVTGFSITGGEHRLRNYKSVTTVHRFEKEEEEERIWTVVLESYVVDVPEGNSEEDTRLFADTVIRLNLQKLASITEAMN; partner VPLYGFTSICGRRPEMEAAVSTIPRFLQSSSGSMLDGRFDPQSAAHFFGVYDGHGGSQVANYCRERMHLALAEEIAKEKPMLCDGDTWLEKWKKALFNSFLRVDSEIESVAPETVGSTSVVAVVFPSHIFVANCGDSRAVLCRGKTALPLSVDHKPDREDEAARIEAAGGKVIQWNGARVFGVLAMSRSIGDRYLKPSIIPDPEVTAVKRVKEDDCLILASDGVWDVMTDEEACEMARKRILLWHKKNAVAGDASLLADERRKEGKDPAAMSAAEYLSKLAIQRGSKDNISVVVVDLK
I12Q: -4.1%
V100L: -0.488%
A158V: 73.4%
E174G: -1.31%
S87G: -2.49%
S150E: 14.5%
F66Q: 14.3%
L29F: -0.349%
V142H: 3.7%
P36V: -4.62%
N114T: -4.22%
R74Y: 2.15%
H16C: 0.943%
H16Y: -9.44%
E14S: 4.7%
R90H: -4.91%

For quick reference, copied from above (block 2):
2'F-ANA at 2 3 4 7 8 9 10: 315 a.u.
2'F-ANA at 3 7 9 11 12 13 14: 670 a.u.
2'F-ANA at 2 3 8 10 11 13 15: 319 a.u.
2'F-ANA at 1 2 3 4 8 9 11 12 13 14: 65.6 a.u.
2'F-ANA at 2 3 4 6 9 13 14 15: 199 a.u.
2'F-ANA at 1 3 5 7 11 12 14 15: 50.8 a.u.
2'F-ANA at 1 3 4 7 8 10 14: 51.4 a.u.
2'F-ANA at 3 4 6 9 12 14 15: 296 a.u.
